# Measurements collected from several papers.
# Lines come from different studies, so protocols differ. “And” joins repeats or separate records; there may be more than shown. ± marks the error that the study gave.
SMILES,test,system,conditions,measurement,result
CC(C)CC(=O)OC[C@H]1O[C@@](C#N)(c2ccc3c(N)ncnn23)[C@H](O)[C@@H]1O,,Humans plasma,"5 µM, 15 min",remaining compound,48.8 ± 0.628%
NCCCC[C@@H]1NC(=O)[C@@H](Cc2c[nH]c3ccccc23)NC(=O)[C@H](c2ccccc2)NC(=O)[C@@H]2C[C@@H](OC(=O)NCCN)CN2C(=O)[C@H](Cc2ccccc2)NC(=O)[C@H](Cc2ccc(OCc3ccccc3)cc2)NC1=O,,healthy human volunteers,1950 µg twice daily,subjects with injection-site pruritus,28%
COc1ccc2nc3cc(Cl)ccc3c(Nc3cc(CN4CCCC4)c(O)c(CN4CCCC4)c3)c2n1,,"mouse, blood","intraperitoneal, 57 mg/kg",mean corpuscular haemoglobin concentration,370 g/L
Cc1cccc(Cn2nc(C3CC3)c3c(NC(=O)c4cnc5cc(OCCN6CCN(C)CC6)ccn45)cccc32)n1,refers to: Dehydration,human pancreatic ductal adenocarcinoma,"oral, dose not given, all-causality",adverse events incidence,18.5%
CN1CC[C@@H](c2c(O)cc(O)c3c(=O)cc(-c4ccc(C(F)(F)F)cc4Cl)oc23)[C@@H]1CO,refers to: Hypoalbuminemia,relapsed or refractory haematological malignancies,"oral, dose not given, grade 3 to 4, all arms",patients with adverse event,5%
COc1cccc(Oc2ccccc2NC(=O)CNC(=O)c2cccc3ccccc23)c1,,"esterase-deficient SCID mice, male","oral, 40 mg/kg/day, 14 days, toxicity study",serum sodium,158 mmol/L and 164 mmol/L and 156 mmol/L
CC(=O)c1c(C)c2cnc(Nc3ccc(C4CCN(CCS(C)(=O)=O)CC4)cn3)nc2n(C2CCCC2)c1=O,,"human, plasma","oral, 100 mg, day 1 single dose",Tmax,7.67 h
CCc1ccc(CC/C=C/c2ccc3c(c2)C(=O)CC3)cc1,,"Sprague-Dawley rat, male, blood","oral, 120 mg/kg/day, 14 days",platelet distribution width,50.1%
C[C@@H]1NC(=O)[C@H](CCCCNC(=O)CO/N=C/C(=O)NCCCC[C@@H]2NC(=O)[C@@H](Cc3ccccc3)NC(=O)[C@H](CC(=O)O)NC(=O)CNC(=O)[C@H](CCCNC(=N)N)NC2=O)NC(=O)CNC(=O)[C@@H]2CCCN2C(=O)[C@H](CCCCNC(=O)CO/N=C/C(=O)NCCCC[C@@H]2NC(=O)[C@@H](Cc3ccccc3)NC(=O)[C@H](CC(=O)O)NC(=O)CNC(=O)[C@H](CCCNC(=N)N)NC2=O)NC(=O)[C@H](CCCCNC(=O)CN2CCCNCCNCCCNCC2)NC(=O)[C@H](CCCCNC(=O)CO/N=C/C(=O)NCCCC[C@@H]2NC(=O)[C@@H](Cc3ccccc3)NC(=O)[C@H](CC(=O)O)NC(=O)CNC(=O)[C@H](CCCNC(=N)N)NC2=O)NC(=O)CNC(=O)[C@@H]2CCCN2C(=O)[C@H](CCCCNC(=O)CO/N=C/C(=O)NCCCC[C@@H]2NC(=O)[C@@H](Cc3ccccc3)NC(=O)[C@H](CC(=O)O)NC(=O)CNC(=O)[C@H](CCCNC(=N)N)NC2=O)NC1=O [copper-64 labelled],PET imaging,"mouse, U-87 MG tumour xenograft, tumor","intravenous, 24 h",tissue uptake,2.49 ± 0.04 %ID/g
CCN1[C@@H](C(=O)NC23CCC(C(=O)O)(CC2)CC3)[C@H](c2cccc(Cl)c2F)[C@]2(C(=O)Nc3cc(Cl)ccc32)C12CCCCC2,,patients with advanced solid tumours,"oral, 200 mg",ALT elevation incidence,0%
C[C@H]1C[C@@H](N2C(=N)N[C@](C)(c3cccc(NC(=O)c4cccc(C#N)c4)c3Cl)CC2=O)CCO1,,rat,"500 mg/kg, every other day",ALAT change,38%
COc1ncccc1-c1cnn2ccc(N3CCN(C(=O)OC(C)C)CC3)nc12,,"rat, thermal hyperalgesia model, plasma","oral, 30 mg/kg, 180 min",drug concentration,2400 nM
CO[C@H]1C[C@@H]2CC[C@@H](C)[C@@](O)(O2)C(=O)C(=O)N2CCCC[C@H]2C(=O)O[C@H]([C@H](C)C[C@@H]2CC[C@@H](OC(=O)NCCOCCOCCOCCOCCOCCOCCOCCOCCC(=O)N3CCc4cc(Cn5nc(-c6ccc7oc(N)nc7c6)c6c(N)ncnc65)ccc4C3)[C@H](OC)C2)C[C@@H](O)[C@H](C)/C=C(\C)[C@@H](O)[C@@H](OC)C(=O)[C@H](C)C[C@H](C)/C=C/C=C/C=C/1C,"phase 1 dose escalation, refers to: diarrhoea",advanced solid tumour patients,"intravenous, 16 mg weekly, grade ≥3",TRAE incidence,0%
